Measured values pooled from the literature.
Numbers after ± are the reported error.
HLA class I histocompatibility antigen, A alpha chain allele A*68:02: HLA class I histocompatibility antigen, A alpha chain, allele A*68:02 (Homo sapiens, UniProt P04439)

With `CC(C)[C@H](NC(=O)[C@@H](NC(=O)[C@@H](NC(=O)[C@@H](NC(=O)[C@@H](NC(=O)CNC(=O)[C@H](CO)NC(=O)[C@@H](N)Cc1ccc(O)cc1)C(C)C)C(C)C)[C@@H](C)O)[C@@H](C)O)C(=O)O` the IC50 was 6.63 µM (HLA class I histocompatibility antigen, A alpha chain, allele A*02:01 (Homo sapiens, UniProt P04439); binding, competitor).
The Kd of `pdtaS H303Q (Mycobacterium tuberculosis)` is reported as 1440 nM (pdtaS (Mycobacterium tuberculosis); MST).
With `CC(C)C[C@H](NC(=O)[C@@H](NC(=O)[C@H](CCC(=O)O)NC(=O)[C@H](CC(N)=O)NC(=O)[C@H](CC(C)C)NC(=O)[C@H](CC(=O)O)NC(=O)[C@H](CC(N)=O)NC(=O)[C@H](CC(C)C)NC(=O)[C@@H](N)[C@@H](C)O)[C@@H](C)O)C(=O)O` the IC50 was 9.47 µM (HLA class I histocompatibility antigen, A alpha chain allele A*68:02; binding, competitor).
With `MLEPFQILSISSFILSALHFMAWTIGALNQIKR (BM2 transmembrane domain H27A (Influenza B virus))` the pKa was 4.2 (solid-state NMR, item: His19; peptide, VM+ membrane pellets; membrane-bound tetramer, no drug, first protonation).
For `CC[C@H](C)[C@H](NC(=O)[C@@H](NC(=O)[C@H](CCCNC(=N)N)NC(=O)[C@H](CCSC)NC(=O)[C@H](CC(N)=O)NC(=O)[C@H](Cc1ccc(O)cc1)NC(=O)[C@@H]1CCCN1C(=O)[C@@H](N)C(C)C)C(C)C)C(=O)O`, the IC50 was 0.174 µM (HLA class I histocompatibility antigen, B alpha chain, allele B*51:01 (Homo sapiens, UniProt P01889); binding, competitor).
`CC(C)Nc1nc2cc(Cl)c(Cl)cc2n1[C@H]1O[C@@H](CO)[C@H](O)[C@@H]1O` gave an EC90 of 12.2 ± 0.327 µM (SARS-CoV-2; Vero C1008, Omicron BA.5; 48 h).
`pdtaS C53A (Mycobacterium tuberculosis)` gave a Kd of 445 nM (itself; MST).
`CC(C)C[C@H](NC(=O)[C@H](Cc1ccccc1)NC(=O)[C@H](CO)NC(=O)[C@@H]1CCCN1C(=O)[C@H](CC(=O)O)NC(=O)[C@@H](NC(=O)[C@@H](NC(=O)[C@@H](N)Cc1c[nH]cn1)[C@@H](C)O)[C@@H](C)O)C(=O)NCC(=O)N[C@@H](CCCNC(=N)N)C(=O)O` has an IC50 of 3.45 µM (HLA class I histocompatibility antigen, A alpha chain allele A*68:02; binding, competitor).

Some of these lines once more:
The Kd of `pdtaS H303Q (Mycobacterium tuberculosis)` is reported as 1440 nM (pdtaS (Mycobacterium tuberculosis); MST).
